Experimental data of several laboratories.
Every numbered part comes from another study and shows a few of its results, in no order.

Set 1
Target: Phosphate system positive regulatory protein PHO4, full length, GST-tagged (PHO4, Saccharomyces cerevisiae, UniProt P07270, residues 1-312)
Method: competition protein-binding microarray
Form: double-stranded DNA, one strand shown
Matrix: in vitro
Concentration: 2 µM
Notes: whole 60-bp probe, lowest competitor level
Together with: Cbf1 competitor, 0.05 µM
Reading: higher = stronger binding
Target sequence (chain): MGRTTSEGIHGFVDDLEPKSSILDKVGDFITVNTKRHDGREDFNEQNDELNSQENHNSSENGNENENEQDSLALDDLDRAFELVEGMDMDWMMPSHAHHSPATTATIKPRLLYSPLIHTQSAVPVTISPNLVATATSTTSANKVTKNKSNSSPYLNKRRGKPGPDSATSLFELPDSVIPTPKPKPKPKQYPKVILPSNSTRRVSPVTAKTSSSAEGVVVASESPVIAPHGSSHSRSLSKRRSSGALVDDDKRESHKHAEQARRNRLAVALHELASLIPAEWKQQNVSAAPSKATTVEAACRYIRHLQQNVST
`TGCGCAACAACTTGGACGGTGGGTGTATGTCTAGAAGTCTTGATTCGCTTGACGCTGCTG` gave a fluorescence intensity of 4950 a.u.
With `AGCATTGGATCTCTAAATTAAATGCGTTAAACAGGGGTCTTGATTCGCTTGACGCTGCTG` the fluorescence intensity was 3890 a.u.
`CTTTCCCGATCTTGCTGAGTGGGTGTAGCACATTTGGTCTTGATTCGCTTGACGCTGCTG` gave a fluorescence intensity of 4560 a.u.
`CTAACAACAGAGACCCACATGGACGTTGGCGCAATTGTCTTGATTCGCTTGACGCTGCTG` has a fluorescence intensity of 9470 a.u.
With `TGCGCAACAACTTTTCACGTGGACTTATGTCTAGAAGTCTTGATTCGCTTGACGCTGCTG` the fluorescence intensity was 14300 a.u.
`GAGGCACTGATCCATCACGTGGAGGAGAACAATTTAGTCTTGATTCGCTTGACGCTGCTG` gave a fluorescence intensity of 14000 a.u.
`GTCTTGTCTCATTGGGCAGTGGGTGTCCCCACTTCAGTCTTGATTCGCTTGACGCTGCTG` gave a fluorescence intensity of 4280 a.u.
With `CGGGGTTAAGTTTGATGGGTGGGTGGCTTGCAGCAGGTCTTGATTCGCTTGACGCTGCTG` the fluorescence intensity was 4760 a.u.
The fluorescence intensity of `AAGTTGAAGAAAAGCCAGGTGACGGAGGTGCCCTAGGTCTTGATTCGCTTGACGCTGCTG` is reported as 3370 a.u.
`ATTACCAAACGCTGTCATGTGTAGCCACTCTAGAAGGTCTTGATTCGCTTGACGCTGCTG` gave a fluorescence intensity of 6820 a.u.

Set 2
Target: Sal-like protein 4, full length isoform A (SALL4, Homo sapiens, UniProt Q9UJQ4, residues 1-1053)
Chain of UniProt Q9UJQ4 (whole entry, looked up): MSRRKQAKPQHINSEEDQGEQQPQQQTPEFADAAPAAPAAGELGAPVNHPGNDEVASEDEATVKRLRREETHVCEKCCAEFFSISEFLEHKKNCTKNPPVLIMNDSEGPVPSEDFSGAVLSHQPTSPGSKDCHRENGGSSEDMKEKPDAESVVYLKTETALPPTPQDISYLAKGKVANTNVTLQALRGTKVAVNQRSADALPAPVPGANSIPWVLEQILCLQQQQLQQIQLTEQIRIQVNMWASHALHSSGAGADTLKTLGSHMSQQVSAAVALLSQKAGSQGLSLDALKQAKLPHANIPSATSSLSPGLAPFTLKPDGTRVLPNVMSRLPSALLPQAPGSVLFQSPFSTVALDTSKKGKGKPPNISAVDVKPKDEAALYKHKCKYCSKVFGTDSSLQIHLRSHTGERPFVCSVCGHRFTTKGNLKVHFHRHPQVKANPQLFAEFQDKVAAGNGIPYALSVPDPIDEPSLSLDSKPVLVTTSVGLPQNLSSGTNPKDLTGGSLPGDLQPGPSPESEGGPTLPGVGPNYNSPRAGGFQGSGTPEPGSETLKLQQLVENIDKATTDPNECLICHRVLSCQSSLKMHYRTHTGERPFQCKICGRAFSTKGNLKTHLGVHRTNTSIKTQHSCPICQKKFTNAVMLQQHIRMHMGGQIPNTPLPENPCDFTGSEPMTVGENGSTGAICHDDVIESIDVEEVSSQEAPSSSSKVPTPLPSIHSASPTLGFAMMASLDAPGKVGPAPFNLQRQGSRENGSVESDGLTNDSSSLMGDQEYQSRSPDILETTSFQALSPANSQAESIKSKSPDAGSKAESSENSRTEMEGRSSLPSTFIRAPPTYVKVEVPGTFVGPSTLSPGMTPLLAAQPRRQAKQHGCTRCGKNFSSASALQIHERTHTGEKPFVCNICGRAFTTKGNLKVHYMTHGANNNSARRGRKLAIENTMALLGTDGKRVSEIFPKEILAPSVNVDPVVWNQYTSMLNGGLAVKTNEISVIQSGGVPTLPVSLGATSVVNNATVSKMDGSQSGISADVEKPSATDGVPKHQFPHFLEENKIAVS
Method: universal PBM
Form: double-stranded DNA, one strand shown
Matrix: in vitro
Concentration: 600 nM
Notes: 8-mer, flanks averaged, mean of replicates
Reading: higher = stronger binding
For `AGCAAACC`, the E-score was 0.0124.
The E-score of `CCCGATGA` is reported as 0.0167.
The E-score of `AGGACCCC` is reported as -0.352.
The E-score of `ATGTCCGC` is reported as -0.1.
With `GGGACCAC` the E-score was -0.262.
`TAGCTCCA` has an E-score of -0.0205.
`GGAACTTA` has an E-score of 0.0706.

Set 3
Target: Histone acetyltransferase KAT6A, both winged helices, GST fusion (KAT6A, Homo sapiens, UniProt Q92794, residues 1-181)
Method: protein binding microarray
Form: double-stranded DNA, one strand shown
Matrix: in vitro
Concentration: not given
Notes: 8-mer, flanks averaged, mean of 2 arrays, mostly near background
Reference: not given
Reading: higher = stronger binding
Target sequence (chain): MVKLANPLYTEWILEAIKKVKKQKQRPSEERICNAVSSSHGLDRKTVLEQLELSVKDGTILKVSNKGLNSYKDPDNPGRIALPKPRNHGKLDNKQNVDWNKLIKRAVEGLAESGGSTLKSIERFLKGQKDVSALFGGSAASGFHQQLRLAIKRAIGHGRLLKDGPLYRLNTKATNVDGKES
The E-score of `CTGCTGAA` is reported as -0.159.
The E-score of `ACGCTGCA` is reported as 0.0926.
For `ATACTTCC`, the E-score was -0.0493.
`GCGCAAGC` gave an E-score of 0.312.
`ACCGATAC` has an E-score of 0.0796.
`AAATGTGG` has an E-score of -0.103.
`AGGAGTAC` has an E-score of -0.108.
`GCTTGTAC` gave an E-score of 0.0318.
The E-score of `CTGCCGCC` is reported as 0.239.

Other studies, line by line
`PhoQ, residues 284 288 289 292 302 303 SASVAL` has a fold induction of 14.3 (PhoP, residues 12 14 15 18 19 NHFIF (Escherichia coli, UniProt P23836); Sort-seq, measured: YFP reporter; E. coli; PhoQ-PhoP variant library, together with: 10 µM Mg2+; reference: high Mg2+ state, higher = stronger signaling).

Repeated from above (other studies, line by line):
`PhoQ, residues 284 288 289 292 302 303 SASVAL` has a fold induction of 14.3 (PhoP, residues 12 14 15 18 19 NHFIF (Escherichia coli, UniProt P23836); Sort-seq, measured: YFP reporter; E. coli; PhoQ-PhoP variant library, together with: 10 µM Mg2+; reference: high Mg2+ state, higher = stronger signaling).
